# Measured values collected from several papers.
# Lines come from different studies, so protocols differ. ± gives the spread as reported.
# Cell line: RAW264.7
Compound,test,setting,scale,quantity,value
CCOC(=O)c1csc2nc(-c3cccc(NC(=O)c4cc5cc(NC(=O)c6ccco6)ccc5n4Cc4ccc(C(F)(F)F)cc4)c3)cn12,,"10 µM, together with: LPS",relative to: control,intracellular MDA level,increased
C=CCc1ccc(OC(=O)COC(=O)[C@]2(C)C3CC[C@]4(C)C(C(=O)C=C5C6[C@@H](C)[C@H](C)CC[C@]6(C)CC[C@]54C)[C@@]3(C)CC[C@H]2OC(C)=O)c(OC)c1 (stereo partly shown),"NO release, inhibitor, Griess","10 µM, 24 h, LPS-stimulated",,inhibition,69.5%
C/C=C(/NC(=O)CCCCCCC)C(=O)N/C(=C/C)C(=O)N[C@H](CC(C)C)C(=O)N[C@@H](CC(C)C)C(=O)Nc1ccc(C(=O)N[C@H](C(=O)O)[C@@H](C)O)cc1,DCFH-DA flow cytometry,"20 µM pretreatment, together with: LPS",,intracellular ROS,decreased
COc1cccc(/C=N\NC(=O)[C@]2(C)C3CC[C@]4(C)C(C(=O)C=C5C6[C@@H](C)[C@H](C)CC[C@]6(C)CC[C@]54C)[C@@]3(C)CC[C@H]2OC(C)=O)c1 (stereo partly shown),"NO release, inhibitor, Griess","10 µM, 24 h, LPS-stimulated",,inhibition,64.6%
CCOC(=O)c1csc2nc(-c3cccc(NC(=O)c4cc5cc(NC(=O)C(C)Cl)ccc5n4Cc4ccc(C(F)(F)F)cc4)c3)cn12 (stereo not shown),,"10 µM, together with: LPS",relative to: control,intracellular Fe2+ level,increased
CC(=O)O[C@@H]1CC[C@@]2(C)C(CC[C@]3(C)C2C(=O)C=C2C4[C@@H](C)[C@H](C)CC[C@]4(C)CC[C@]23C)[C@@]1(C)C(=O)N/N=C\c1ccccc1 (stereo partly shown),"NO release, inhibitor, Griess","10 µM, 24 h, LPS-stimulated",,inhibition,59.2%
C[C@H]1[C@H](C)CC[C@]2(C(=O)O)CC[C@]3(C)C(=CC[C@@H]4[C@@]5(C)CC[C@H](O[C@@H]6O[C@@H](C)[C@H](O)[C@@H](O)[C@H]6O)C(C)(C)[C@@H]5CC[C@]43C)[C@H]12,"LPS-induced NO production, inhibitor, Griess reaction","24 h, together with: 100 ng/mL LPS",,EC50,10.5 ± 0.3 µM
Oc1ccc(-c2cc(-c3ccc(OCCN4CCCCC4)cc3)n(-c3ccc(O)cc3)n2)cc1,"cytotoxicity, Alamar blue",,,EC50,12.3 ± 3.7 µM
CC(=O)O[C@@H]1CC[C@@]2(C)C(CC[C@]3(C)C2C(=O)C=C2C4[C@@H](C)[C@H](C)CC[C@]4(C)CC[C@]23C)[C@@]1(C)C(=O)Oc1cc(C)ccc1C(C)C (stereo partly shown),"NO release, inhibitor, Griess","10 µM, 24 h, LPS-stimulated",,inhibition,82.1%
CN(C)C1CCN(c2nc3oc4ccccc4c(=O)c3s2)CC1,"TNF-α release, inhibitor, ELISA","48 h, LPS-stimulated",,IC50,38.6 µM
Cc1ccc(S(=O)(=O)Nc2ccc(O)c3ccccc23)c(C)c1,,"10 µM, 24 h, together with: LPS 1 µg/mL",,IL-1β secretion inhibition,86%
CC(=O)O[C@@H]1CC[C@@]2(C)C(CC[C@]3(C)C2C(=O)C=C2C4[C@@H](C)[C@H](C)CC[C@]4(C)CC[C@]23C)[C@@]1(C)C(=O)N/N=C\c1ccccc1O (stereo partly shown),"NO release, inhibitor, Griess","10 µM, 24 h, LPS-stimulated",,inhibition,67.7%
C[C@H]1[C@H](C)CC[C@]2(C(=O)O)CC[C@]3(C)C(=CC[C@@H]4[C@@]5(C)CC[C@H](O[C@@H]6O[C@@H](C)[C@H](O[C@@H]7O[C@@H](C)[C@H](O)[C@@H](O)[C@H]7O)[C@@H](O[C@@H]7O[C@@H](C)[C@H](O)[C@@H](O)[C@H]7O)[C@H]6O)C(C)(C)[C@@H]5CC[C@]43C)[C@H]12,"LPS-induced NO production, inhibitor, Griess reaction","24 h, together with: 100 ng/mL LPS",,EC50,9.8 ± 0.3 µM
O=[N+]([O-])c1cccc(S(=O)(=O)NC[C@@H](O)[C@@H]2CCc3cc(F)ccc3O2)c1,"inhibitor, item: nitrite","100 and 200 µM, pretreatment, together with: LPS",,NO production,inhibited
CN(CCO)c1ccc(/C=C/C(=O)C(c2ccccc2)c2ccccc2)cc1,"IL-6 release, inhibitor, ELISA","10 µM, LPS-stimulated",,inhibition,73 to 89%
CCOC(=O)c1nc2cc(Cl)c(Cl)cc2nc1N1CCN(C(=O)Nc2ccc(N3CCNCC3)cc2)CC1,Western blot,"concentration not given, 3 h pretreatment, together with: LPS, 4 h",,KEAP1 protein level,decreased
CC[C@H](C)[C@H](NC(=O)[C@H](CCCCN)NC(=O)[C@H](CC(N)=O)NC(=O)CNC(=O)[C@@H](NC(=O)[C@H](C)NC(=O)[C@H](CCCNC(=N)N)NC(=O)[C@H](CC(C)C)NC(=O)[C@H](CCCCN)NC(=O)[C@H](CCCCN)NC(=O)[C@H](CCCCN)NC(=O)[C@H](C)NC(=O)[C@H](CCCCN)NC(=O)[C@@H]1CSSC[C@H](NC(=O)[C@H](CCCNC(=N)N)NC(=O)CN)C(=O)N[C@@H](CC(N)=O)C(=O)N[C@@H](CC(C)C)C(=O)N[C@@H](CC(C)C)C(=O)N1)C(C)C)C(=O)N[C@@H](CCCCN)C(=O)N[C@@H](CCC(=O)O)C(=O)N[C@H](C(=O)N[C@@H](CCCCN)C(=O)N[C@@H](CC(N)=O)C(=O)N[C@H](C(=O)N[C@H](C(=O)N[C@@H](Cc1ccccc1)C(=O)N[C@@H](CC(N)=O)C(=O)N[C@@H](CCCNC(=N)N)C(=O)O)C(C)C)C(C)C)[C@@H](C)CC,,"20 µM, 2 h pretreatment, together with: LPS 24 h after washing",,IL-6 production,decreased
COc1ccc(OC)c(/C=N\NC(=O)[C@]2(C)C3CC[C@]4(C)C(C(=O)C=C5C6[C@@H](C)[C@H](C)CC[C@]6(C)CC[C@]54C)[C@@]3(C)CC[C@H]2OC(C)=O)c1 (stereo partly shown),"NO release, inhibitor, Griess","10 µM, 24 h, LPS-stimulated",,inhibition,89.7%
CC(=O)C1=C(C)NC(SCC(=O)c2ccccc2)=C(C#N)C1c1sccc1C (stereo not shown),RNA-seq,"10 µM, overnight, together with: LPS 20 ng/mL",,number of repressed genes,143

# Repeated from above:
Compound,test,setting,scale,quantity,value
CN(C)C1CCN(c2nc3oc4ccccc4c(=O)c3s2)CC1,"TNF-α release, inhibitor, ELISA","48 h, LPS-stimulated",,IC50,38.6 µM
